Experimental data from different studies.
Each line is one published result; not all experiments were run side by side. “And” joins repeats or separate records; there may be more than shown. ± marks the error that the study gave.
EPHX2: Bifunctional epoxide hydrolase 2 (EPHX2, Homo sapiens, UniProt P34913)
UniProt P34913, sequence (whole entry, looked up): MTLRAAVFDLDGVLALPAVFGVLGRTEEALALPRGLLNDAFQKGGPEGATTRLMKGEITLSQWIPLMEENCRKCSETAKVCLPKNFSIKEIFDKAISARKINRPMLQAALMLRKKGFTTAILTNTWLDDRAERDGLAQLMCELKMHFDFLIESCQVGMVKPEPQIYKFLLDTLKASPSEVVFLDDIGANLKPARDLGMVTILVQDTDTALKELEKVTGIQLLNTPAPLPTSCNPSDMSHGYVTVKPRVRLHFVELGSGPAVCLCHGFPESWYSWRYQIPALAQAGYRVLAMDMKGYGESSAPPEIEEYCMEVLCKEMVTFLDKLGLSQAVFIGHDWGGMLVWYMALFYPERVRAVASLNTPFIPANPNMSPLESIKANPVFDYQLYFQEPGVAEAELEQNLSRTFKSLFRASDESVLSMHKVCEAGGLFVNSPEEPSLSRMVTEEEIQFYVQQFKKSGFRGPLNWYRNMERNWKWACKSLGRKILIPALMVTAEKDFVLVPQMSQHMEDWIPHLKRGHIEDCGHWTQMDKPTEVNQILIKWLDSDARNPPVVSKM
Ephx2: Bifunctional epoxide hydrolase 2 (Ephx2, Mus musculus, UniProt P34914)
UniProt P34914, sequence (whole entry, looked up): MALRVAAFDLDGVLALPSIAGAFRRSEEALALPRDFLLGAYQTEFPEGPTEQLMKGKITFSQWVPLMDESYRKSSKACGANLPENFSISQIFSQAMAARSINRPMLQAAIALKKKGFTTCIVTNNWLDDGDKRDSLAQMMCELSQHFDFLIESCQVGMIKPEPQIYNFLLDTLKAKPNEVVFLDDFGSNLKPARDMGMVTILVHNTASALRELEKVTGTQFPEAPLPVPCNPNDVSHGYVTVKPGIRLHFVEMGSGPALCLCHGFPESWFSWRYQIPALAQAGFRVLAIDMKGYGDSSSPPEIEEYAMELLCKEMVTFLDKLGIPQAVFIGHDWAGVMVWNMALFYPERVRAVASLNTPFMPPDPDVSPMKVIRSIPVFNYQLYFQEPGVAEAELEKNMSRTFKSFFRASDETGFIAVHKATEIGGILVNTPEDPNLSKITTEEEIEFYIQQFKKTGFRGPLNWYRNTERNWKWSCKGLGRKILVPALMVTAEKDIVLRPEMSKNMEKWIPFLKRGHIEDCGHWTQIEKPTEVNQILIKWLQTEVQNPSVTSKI
CBL SH2 domain: E3 ubiquitin-protein ligase CBL, SH2 domain (CBL, Homo sapiens, UniProt P22681)
FAAH: Fatty-acid amide hydrolase 1 (FAAH, Homo sapiens, UniProt O00519)
UniProt Q8WTS6, sequence (whole entry, looked up): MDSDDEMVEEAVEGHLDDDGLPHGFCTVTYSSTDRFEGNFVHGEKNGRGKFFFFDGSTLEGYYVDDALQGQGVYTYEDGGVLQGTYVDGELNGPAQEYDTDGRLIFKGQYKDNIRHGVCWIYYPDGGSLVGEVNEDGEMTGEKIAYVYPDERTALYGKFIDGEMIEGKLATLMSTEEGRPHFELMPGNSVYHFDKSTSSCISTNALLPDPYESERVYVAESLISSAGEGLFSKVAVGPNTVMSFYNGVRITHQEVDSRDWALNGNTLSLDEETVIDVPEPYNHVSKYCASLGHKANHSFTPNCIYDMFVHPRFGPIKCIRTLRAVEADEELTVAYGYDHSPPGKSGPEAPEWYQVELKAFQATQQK
UniProt O00519, sequence (whole entry, looked up): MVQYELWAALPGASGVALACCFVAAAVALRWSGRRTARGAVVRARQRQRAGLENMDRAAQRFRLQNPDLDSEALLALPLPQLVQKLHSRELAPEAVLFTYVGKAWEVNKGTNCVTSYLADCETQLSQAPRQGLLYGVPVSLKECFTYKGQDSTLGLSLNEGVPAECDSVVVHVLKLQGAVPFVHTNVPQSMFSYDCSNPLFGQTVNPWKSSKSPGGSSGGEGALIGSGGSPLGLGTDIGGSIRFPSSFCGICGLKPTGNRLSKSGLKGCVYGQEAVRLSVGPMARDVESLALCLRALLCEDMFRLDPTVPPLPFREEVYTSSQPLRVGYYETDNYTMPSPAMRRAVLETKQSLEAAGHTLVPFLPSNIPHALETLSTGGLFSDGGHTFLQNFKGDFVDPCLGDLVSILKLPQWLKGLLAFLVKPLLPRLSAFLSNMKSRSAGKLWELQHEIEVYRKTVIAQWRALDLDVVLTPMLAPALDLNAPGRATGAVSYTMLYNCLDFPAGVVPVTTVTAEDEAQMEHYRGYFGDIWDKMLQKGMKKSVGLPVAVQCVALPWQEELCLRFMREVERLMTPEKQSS

The IC50 of O=C(Nc1ccc(OC(F)(F)F)cc1)NC1CCN(c2c(NS(=O)(=O)Cc3ccccc3)c(=O)c2=O)CC1 is reported as 4.8 ± 0.2 nM (EPHX2).
With C(#Cc1c[nH]c2nccc(-c3ccncc3)c12)c1cccnc1 the AUC(0-inf) was 660 ± 206 ng·h/mL (mouse C57BL/6, male; intravenous, 2 mg/kg).
The IC50 of O=C(Nc1ccc(-c2ccc3ccccc3n2)cc1)C1CCN(Cc2ccccc2F)CC1 is reported as 287 nM (EPHX2).
Cc1ccc(S(=O)(=O)Nc2c(N3CCC(NC(=O)Nc4ccc(F)c(C)c4)CC3)c(=O)c2=O)cc1 has an IC50 of 656 ± 72.4 nM (Ephx2).
For O=c1[nH]cnc2c(CN3C[C@H](CO)[C@@H](O)C3)c[nH]c12, the Ki was 0.155 ± 0.0058 nM (purine nucleoside phosphorylase (Kluyveromyces lactis, UniProt Q6CSZ6)).
For CSCC[C@H](NC(=O)[C@@H](NC(=O)[C@H](CCC(=O)O)NC(=O)[C@H](Cc1ccc(OP(=O)(O)O)cc1)NC(=O)[C@H](CC(C)C)NC(=O)[C@@H]1CCCN1C(=O)[C@H](CC(=O)O)NC(=O)[C@@H]1CCCN1C(=O)[C@H](CS)NC(=O)[C@H](Cc1ccc(O)cc1)NC(=O)[C@H](CCC(=O)O)NC(=O)[C@@H]1CCCN1C(=O)[C@H](CCC(N)=O)NC(=O)c1ccc2c(c1)C(=O)OC21c2ccc(N(C)C)cc2Oc2cc(N(C)C)ccc21)C(C)C)C(=O)N[C@@H](CC(C)C)C(=O)N[C@@H](CCCCN)C(=O)N[C@@H](CS)C(=O)N[C@@H](Cc1c[nH]c2ccccc12)C(=O)N[C@@H](CC(=O)O)C(=O)O, the Kd was 148 nM (CBL SH2 domain; human protein).
O=C(Nc1ccc(C(F)(F)F)c(F)c1)NC1CCN(c2c(NS(=O)(=O)Cc3ccccc3)c(=O)c2=O)CC1 gave an IC50 of 2550 ± 328 nM (Ephx2).
With O=C(Nc1ccc(-c2cnc3ccccc3c2)cc1)C1CCN(CC2CCCCC2)CC1 the IC50 was 147 nM (FAAH).
NCCc1c[nH]c2ccc(O)cc12 has an EC50 of 342 nM (serotonin transporter (Schistosoma mansoni, UniProt Q3I1M7)).
With Cc1ccc(CN2CCC(C(=O)Nc3ccc(-c4cnc5ccccc5c4)cc3)CC2)cc1 the IC50 was 79.4 nM (EPHX2).
CC[C@H](C)[C@H](NC(=O)c1ccc2c(c1)C(=O)OC21c2ccc(N(C)C)cc2Oc2cc(N(C)C)ccc21)C(=O)N[C@@H](CCSC)C(=O)N[C@@H](CC(C)C)C(=O)N[C@@H](Cc1c[nH]c2ccccc12)C(=O)N[C@@H](CCC(N)=O)C(=O)N[C@@H](CCCCN)C(=O)N[C@@H](CCCCN)C(=O)N1CCC[C@H]1C(=O)N[C@@H](CCCNC(=N)N)C(=O)N[C@@H](Cc1ccc(OP(=O)(O)O)cc1)C(=O)N[C@@H](CCC(=O)O)C(=O)N[C@H](C(=O)N[C@@H](CCCNC(=N)N)C(=O)N[C@@H](Cc1c[nH]c2ccccc12)C(=O)N[C@@H](CCCCN)C(=O)N[C@H](C(=O)N[C@H](C(=O)N[C@@H](CC(=O)O)C(=O)O)[C@@H](C)CC)C(C)C)[C@@H](C)CC has a Kd of 1980 nM (CBL SH2 domain; human protein).
With O=C(O)CCCC[C@@H]1SC[C@@H]2NC(=O)N[C@@H]21 the IC50 was 1300 nM and 1300 to 1700 nM (SETD7 (Homo sapiens, UniProt Q8WTS6); inhibitor; apparent, bead displacement artifact).
Cc1cc(OCc2nnc(SC3CCCC3)n2-c2cccnc2)ccc1-c1ccc(S(C)(=O)=O)cc1 gave a GI50 of 1760 nM (SW-620).
With Cc1ccccc1CN1CCC(C(=O)Nc2ccc(-c3cnc4ccccc4c3)cc2)CC1 the IC50 was 94.4 nM (FAAH).
O=C(Nc1ccc(F)c(Cl)c1)NC1CCN(c2c(NS(=O)(=O)Cc3ccccc3)c(=O)c2=O)CC1 gave an IC50 of 18 ± 2 nM (EPHX2).

Some of these lines once more:
With Cc1ccccc1CN1CCC(C(=O)Nc2ccc(-c3cnc4ccccc4c3)cc2)CC1 the IC50 was 94.4 nM (FAAH).
